Measurements from different studies.
Protocols differ between the studies behind these lines.
Organism: Staphylococcus aureus

SMILES | test | system | conditions | MIC
CCCCCCCNC(=O)CP(=O)(O)O | – | ATCC 33591 methicillin-resistant | – | > 200 µg/mL
CC[C@H](C)[C@H](NC(=O)[C@H](CC(C)C)NC(=O)[C@H](CCCNC(=N)N)NC(=O)[C@@H](N)CCCNC(=N)N)C(=O)N[C@@H](CCCNC(=N)N)C(=O)N[C@@H](CCCCN)C(=O)N[C@@H](CC(C)C)C(=O)N[C@@H](CCCCN)C(=O)NCC(=O)N1CCC[C@H]1C(=O)N[C@H](C(=O)N[C@H](C(=O)N[C@@H](Cc1ccc(O)cc1)C(=O)N[C@@H](CC(C)C)C(=O)N[C@@H](Cc1ccc(O)cc1)C(=O)N[C@@H](Cc1ccccc1)C(=O)N[C@@H](CCCCN)C(=O)N[C@@H](CC(C)C)C(=O)N[C@@H](CCC(N)=O)C(=O)N[C@@H](CC(C)C)C(=O)N[C@@H](CC(C)C)C(=O)N[C@@H](CCCCN)C(=O)N[C@@H](CCCCN)C(N)=O)[C@@H](C)CC)[C@@H](C)CC | – | CCARM 3090, methicillin-resistant, Mueller-Hinton broth | 24 h | 64 µM
Cc1ccc2[nH]c3c(c2c1)CCCC3NCCc1ccc(O)cc1 (stereo not shown) | broth microdilution | SA113 ΔtarO | – | > 16 µg/mL
CC[C@H](C)[C@H](NC(=O)[C@H](CCCCN)NC(=O)[C@H](CC(=O)O)NC(=O)[C@H](CC(C)C)NC(=O)[C@@H](NC(=O)[C@H](CC(N)=O)NC(=O)[C@H](CC(C)C)NC(=O)[C@@H](NC(=O)[C@H](Cc1ccccc1)NC(=O)[C@H](CCCCN)NC(=O)[C@H](CCCCN)NC(=O)CNC(=O)[C@H](C)NC(=O)[C@H](CC(N)=O)NC(=O)[C@H](CCCCN)NC(=O)[C@H](Cc1ccccc1)NC(=O)[C@H](CC(N)=O)NC(=O)[C@H](CCC(=O)O)NC(=O)[C@H](Cc1c[nH]c2ccccc12)NC(=O)[C@H](CC(C)C)NC(=O)[C@@H](N)CO)[C@@H](C)CC)[C@@H](C)CC)C(=O)N[C@@H](CCCNC(=N)N)C(N)=O | – | ATCC 6538 | overnight, 37 °C, together with: 150 mM NaCl | 4 µM
CCOc1ccc2ccccc2c1C(=O)N[C@@H]1C(=O)N2[C@@H]1SC(C)(C)[C@@H]2C(=O)O | – | CRB, PBP4 deletion | – | 0.5 µg/mL
COc1ccnc(NC(=S)N2CCN(c3ncc(C(F)(F)F)cc3Cl)CC2)c1 | – | MRSA USA500-2273, clinical | – | 4 µM
CC[C@H](C)[C@H](NC(=O)[C@H](Cc1c[nH]c2ccccc12)NC(=O)[C@@H](NC(=O)[C@H](Cc1c[nH]c2ccccc12)NC(=O)[C@@H]1CCCN1C(=O)[C@@H](NC(=O)[C@H](C)N)[C@@H](C)CC)[C@@H](C)CC)C(=O)N[C@@H](Cc1c[nH]c2ccccc12)C(=O)N[C@@H](CCCNC(=N)N)C(=O)N[C@@H](CC(C)C)C(=O)N[C@@H](CC(C)C)C(=O)N[C@@H](CCCNC(=N)N)C(=O)N[C@@H](CCCCN)C(=O)NCC(N)=O | broth microdilution | ATCC 35556 | 18 h, 37 °C | 3.75 µM
CC[C@H](C)[C@H](N)C(=O)N[C@@H](CC(C)C)C(=O)NCC(=O)N[C@H](CCCNC(=N)N)C(=O)N[C@H](C(=O)N[C@H](C(=O)N[C@@H](CCCCN)C(=O)NCC(=O)N[C@H](C(=O)N[C@@H](CCCCN)C(=O)N[C@@H](CC(=O)O)C(=O)N[C@H](C(=O)N[C@@H](CC(C)C)C(N)=O)[C@@H](C)CC)[C@@H](C)CC)C(C)C)[C@@H](C)CC | broth microdilution | ATCC 25923, Mueller-Hinton broth | 16 h, 37 °C | 50 µM
CC[C@H](C)[C@H](NC(=O)[C@H](CC(C)C)NC(=O)[C@H](CCCNC(=N)N)NC(=O)[C@@H](N)CCCNC(=N)N)C(=O)N[C@@H](CC(C)C)C(=O)N[C@H](C(=O)N[C@@H](CCCCN)C(=O)N[C@H](C(=O)NCC(=O)N1CCC[C@H]1C(=O)N[C@H](C(=O)N[C@H](C(=O)N[C@@H](Cc1ccc(O)cc1)C(=O)N[C@@H](CCCCN)C(=O)N[C@@H](Cc1ccc(O)cc1)C(=O)N[C@@H](Cc1ccccc1)C(=O)N[C@@H](CCCCN)C(=O)N[C@@H](CCCCN)C(=O)N[C@@H](CCC(N)=O)C(=O)N[C@@H](CC(C)C)C(=O)N[C@@H](CCCCN)C(=O)N[C@@H](CCCCN)C(=O)N[C@@H](CC(C)C)C(N)=O)[C@@H](C)CC)[C@@H](C)CC)[C@@H](C)O)[C@@H](C)O | – | CCARM 3089, methicillin-resistant, Mueller-Hinton broth | 24 h | 32 µM
CC(C)C[C@H](NC(=O)[C@H](Cc1c[nH]c2ccccc12)NC(=O)[C@H](CC(C)C)NC(=O)[C@@H](NC(=O)[C@H](CC(C)C)NC(=O)[C@H](CCCNC(=N)N)NC(=O)[C@@H](N)CCCNC(=N)N)[C@@H](C)O)C(=O)N[C@H](C(=O)N[C@@H](CC(C)C)C(=O)N[C@@H](CCCNC(=N)N)C(=O)N[C@@H](CCCNC(=N)N)C(N)=O)[C@@H](C)O | broth microdilution | 29213, Mueller-Hinton broth | 24 h, 37 °C, lowest concentration, 95% inhibition, together with: BSA | 4 µM
CC[C@H](C)[C@H](NC(=O)[C@H](CC(C)C)NC(=O)[C@H](CCCNC(=N)N)NC(=O)[C@@H](N)CCCNC(=N)N)C(=O)N[C@@H](CCCNC(=N)N)C(=O)N[C@@H](CCCCN)C(=O)N[C@@H](CC(C)C)C(=O)N[C@@H](CCCCN)C(=O)NCC(=O)N[C@@H](CC(C)C)C(=O)N[C@@H](CCCCN)C(=O)N[C@@H](CCCCN)C(=O)N[C@@H](Cc1ccc(O)cc1)C(=O)N[C@@H](CC(C)C)C(=O)N[C@@H](Cc1ccc(O)cc1)C(=O)N[C@@H](Cc1ccccc1)C(=O)N[C@@H](CCCCN)C(=O)N[C@@H](CC(C)C)C(=O)N[C@@H](CCC(N)=O)C(=O)N[C@@H](CC(C)C)C(=O)N[C@@H](CC(C)C)C(=O)N[C@@H](CCCCN)C(=O)N[C@@H](CCCCN)C(N)=O | – | CCARM 3090, methicillin-resistant, Mueller-Hinton broth | 24 h | 8 µM
CC[C@H](C)[C@H](NC(=O)[C@H](CC(C)C)NC(=O)[C@H](CCCNC(=N)N)NC(=O)[C@H](CC(C)C)NC(=O)[C@@H](NC(=O)[C@@H](NC(=O)[C@H](CCCNC(=N)N)NC(=O)[C@@H](NC(=O)[C@@H](NC(=O)[C@H](CCCNC(=N)N)NC(=O)[C@H](CCCNC(=N)N)NC(=O)[C@H](CCCNC(=N)N)NC(=O)[C@H](CO)NC(=O)[C@@H](N)CCCNC(=N)N)[C@@H](C)CC)[C@@H](C)CC)[C@@H](C)CC)C(C)C)C(=O)N[C@@H](CCCNC(=N)N)C(=O)N[C@@H](CCCNC(=N)N)C(=O)N[C@@H](CO)C(=O)N[C@@H](C)C(=O)N[C@@H](CCCNC(=N)N)C(N)=O | broth microdilution | ATCC 29213 | highest value reported | 8 µM
Cc1onc(-c2ccccc2)c1C(=O)N[C@@H]1C(=O)N2[C@@H]1SC(C)(C)[C@@H]2C(=O)O | – | COL, MRSA | – | 256 µg/mL
